Assay results pooled from the literature.
Protocols differ between the studies behind these lines. ± gives the spread as reported.

Cc1ccc([C@@H]2O[C@H](CO)[C@@H](O)[C@H](O)[C@H]2O)cc1Cc1ccc(-c2ccc(F)cc2)s1
AUC(0-inf) (Japanese type 2 diabetes patients, plasma; oral, 100 mg single, normal or mild renal impairment): 6930 ng·h/mL

Cc1nc(-c2ccc(OCC(C)C)c(C#N)c2)sc1C(=O)O
AUC(0-inf) (healthy Chinese adult volunteers, plasma; oral, 20 mg single dose, fasting): 3550 ± 753 ng·h/mL

CC(C)(Sc1ccncc1-c1ccc(C#N)c2ccccc12)C(=O)O
AUC(0-inf) (male, plasma; oral, 15 mg, mild renal impairment, fasted): 201 ng·h/mL

O=C(C1CCCCC1)N1CC(=O)N2CCc3ccccc3[C@@H]2C1
AUC(0-inf) (healthy men, plasma; oral, 40 mg/kg racemic praziquantel, geometric mean, added: ritonavir 100 mg/day for 14 days): 1060 ng·h/mL

CC#CC(=O)N1CCC[C@H]1c1nc(-c2ccc(C(=O)Nc3ccccn3)cc2)c2c(N)nccn12
AUC(0-inf) (Japanese patients, plasma; oral, 100 mg twice daily, day 8, fasting, multiple dose, geometric mean): 1210 ng·h/mL

CC(C)(Sc1ccncc1-c1ccc(C#N)c2ccccc12)C(=O)O
AUC(0-inf) (healthy Japanese male subjects, plasma; oral, 5 mg single dose, day 6, fed, geometric mean): 73.2 ng·h/mL

Oc1ccc2c3c(cnc2c1)-c1ccc(C(F)(F)F)cc1O[C@@H]3c1ccc(OCCN2CC(CF)C2)cc1
AUC(0-inf) (healthy fasted women, plasma; oral tablets, 400 mg): 1960 ng·h/mL

CC(C)=CCC[C@](C)(O[C@@H]1O[C@H](CO)[C@@H](O)[C@H](O)[C@H]1O)[C@H]1CC[C@]2(C)[C@@H]1[C@H](O)C[C@@H]1[C@@]3(C)CC[C@H](O[C@@H]4O[C@H](CO)[C@@H](O)[C@H](O)[C@H]4O[C@@H]4O[C@H](CO)[C@@H](O)[C@H](O)[C@H]4O)C(C)(C)[C@@H]3CC[C@]12C
AUC(0-inf) (LC-MS/MS; healthy volunteers, serum; oral, 3 g red ginseng): 8.2 ± 11.9 ng·h/mL

CC(C(=O)O)c1ccc(-c2ccccc2)c(F)c1 (stereo not shown)
AUC(0-inf) (healthy volunteers, plasma; oral, 100 mg, arithmetic mean, added: control beverage 250 mL): 59300 ± 18700 ng·h/mL

CC[C@H](C)[C@H](NC(=O)[C@H](CCC(=O)O)NC(=O)[C@H](CO)NC(=O)[C@@H](NC(=O)[C@@H](N)CO)C(C)C)C(=O)N[C@@H](CCC(N)=O)C(=O)N[C@@H](CC(C)C)C(=O)N[C@@H](CCSC)C(=O)N[C@@H](Cc1cnc[nH]1)C(=O)N[C@@H](CC(N)=O)C(=O)N[C@@H](CC(C)C)C(=O)NCC(=O)N[C@@H](CCCCN)C(=O)N[C@@H](Cc1cnc[nH]1)C(=O)N[C@@H](CC(C)C)C(=O)N[C@@H](CC(N)=O)C(=O)N[C@@H](CO)C(=O)N[C@@H](CCSC)C(=O)N[C@@H](CCC(=O)O)C(=O)N[C@@H](CCCN=C(N)N)C(=O)N[C@H](C(=O)N[C@@H](CCC(=O)O)C(=O)N[C@@H](Cc1c[nH]c2ccccc12)C(=O)N[C@@H](CC(C)C)C(=O)N[C@@H](CCCN=C(N)N)C(=O)N[C@@H](CCCCN)C(=O)N[C@@H](CCCCN)C(=O)N[C@@H](CC(C)C)C(=O)N[C@@H](CCC(N)=O)C(=O)N[C@@H](CC(=O)O)C(=O)N[C@H](C(=O)N[C@@H](Cc1cnc[nH]1)C(=O)N[C@@H](CC(N)=O)C(=O)N[C@@H](Cc1ccccc1)C(=O)O)C(C)C)C(C)C
AUC(0-inf) (postmenopausal women, osteoporosis, plasma; subcutaneous, 56.5 µg once weekly): 0.925 to 1.23 ng·h/mL

COc1cc(OC)c(/C=C/S(=O)(=O)Cc2ccc(OC)c(NCC(=O)O)c2)c(OC)c1
AUC(0-inf) (cancer patients, phase I, plasma; oral, 280 mg twice daily, day 1 cycle 1): 4930 ± 4060 ng·h/mL

C[C@@H]1CCO[C@H]2Cn3cc(C(=O)NCc4ccc(F)cc4F)c(=O)c(O)c3C(=O)N12
AUC(0-inf) (healthy subjects matched to renal impairment, plasma; oral, 50 mg, single dose): 14100 to 60900 ng·h/mL

COc1cccc(N2CCN(C3=Nc4c(F)cccc4[C@H](CC(=O)O)N3c3cc(C(F)(F)F)ccc3OC)CC2)c1
AUC(0-inf) (UHPLC-MS/MS; healthy women, plasma; intravenous infusion, 960 mg single dose, 60 min infusion, HPβCD formulation): 250000 ± 59200 ng·h/mL

CNC(=O)c1ccc(-c2cnc3ncc(Cc4ccc5ncccc5c4)n3n2)cc1F
AUC(0-inf) (normal hepatic function; oral, 200 mg, mean): 6970 ng·h/mL

O=C(NC[C@H](O)CO)c1ccncc1Nc1ccc(I)cc1F
AUC(0-inf) (patients, plasma; oral, 45 mg single dose, day 8, median, alone): 1340 ng·h/mL

CCOc1ccc(Cc2cc([C@@H]3S[C@H](CO)[C@@H](O)[C@H](O)[C@H]3O)c(OC)cc2C)cc1
AUC(0-inf) (Japanese type 2 diabetes patients, plasma; oral, 5 mg single dose, eGFR below 30 mL/min/1.73 m^2): 2420 ± 657 ng·h/mL

CCC[C@H](N[C@@H](C)C(=O)N1[C@H](C(=O)O)C[C@@H]2CCCC[C@@H]21)C(=O)OCC
AUC(0-inf) (healthy Chinese volunteers, plasma; oral, 4 mg, fasting, added: indapamide 1.25 mg): 52 ± 12.9 ng·h/mL

CN1C(=O)[C@@H](NC(=O)c2nnc(Cc3ccccc3)[nH]2)COc2ccccc21
AUC(0-inf) (healthy men, plasma; oral, 20 mg once daily, day 1, geometric mean): 1140 ng·h/mL

COc1ccc2c3c1O[C@H]1C[C@@H](OC(=O)c4ccccc4)C=C[C@@]31CCN(C)C2
AUC(0-inf) (healthy young men, plasma; intranasal, 11 mg, single dose): 32.9 ng·h/mL

CC1Cc2ccccc2N1NC(=O)c1ccc(Cl)c(S(N)(=O)=O)c1 (stereo not shown)
AUC(0-inf) (healthy Chinese volunteers, plasma; oral, 1.25 mg, fasting, added: perindopril tert-butylamine 4 mg): 289 ± 84.7 ng·h/mL

C[C@H]1Oc2cc(cnc2N)-c2c(nn(C)c2C#N)CN(C)C(=O)c2ccc(F)cc21
AUC(0-inf) (healthy adults; oral tablet, 100 mg single dose, high-fat meal, adjusted geometric mean): 8870 ng·h/mL

NC(=O)c1cnc2[nH]ccc2c1N[C@@H]1[C@@H]2CC3C[C@H]1C[C@@](O)(C3)C2
AUC(0-inf) (healthy Caucasian men, plasma; oral, 20 mg, single dose fasted): 196 ng·h/mL

Nc1cccc2c1C(=O)N(C1CCC(=O)NC1=O)C2=O (stereo not shown)
AUC(0-inf) (healthy male nonsmokers, plasma; oral, 4 mg, single dose, geometric mean): 684 ng·h/mL

Cc1nc2cccc(N)c2c(=O)n1C1CCC(=O)NC1=O (stereo not shown)
AUC(0-inf) (healthy adults, plasma; oral, 3 mg, fasted geometric mean alone): 718 ng·h/mL

CC(C)=CCC[C@](C)(O[C@@H]1O[C@H](CO)[C@@H](O)[C@H](O)[C@H]1O)[C@H]1CC[C@]2(C)[C@@H]1[C@H](O)C[C@@H]1[C@@]3(C)CC[C@H](O[C@@H]4O[C@H](CO)[C@@H](O)[C@H](O)[C@H]4O)C(C)(C)[C@@H]3CC[C@]12C
AUC(0-inf) (LC-MS/MS; healthy male volunteers, serum; oral, 3 g fermented red ginseng): 33 ± 48.6 ng·h/mL
